Experimental data gathered from unrelated publications.
Numbered parts are unrelated; each lists some results of a single study. Changes are numbered by the printed parent chain.
UniProt Q96B02, sequence (whole entry, looked up): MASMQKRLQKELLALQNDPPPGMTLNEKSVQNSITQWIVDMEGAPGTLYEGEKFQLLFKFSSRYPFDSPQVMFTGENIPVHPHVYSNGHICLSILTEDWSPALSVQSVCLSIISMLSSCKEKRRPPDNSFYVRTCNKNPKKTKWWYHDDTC
UniProt P49459, sequence (whole entry, looked up): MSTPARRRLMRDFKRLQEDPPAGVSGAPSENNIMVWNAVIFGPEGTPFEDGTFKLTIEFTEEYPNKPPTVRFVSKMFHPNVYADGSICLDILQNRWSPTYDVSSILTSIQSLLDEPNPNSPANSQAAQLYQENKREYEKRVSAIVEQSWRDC
UniProt P61077, sequence (whole entry, looked up): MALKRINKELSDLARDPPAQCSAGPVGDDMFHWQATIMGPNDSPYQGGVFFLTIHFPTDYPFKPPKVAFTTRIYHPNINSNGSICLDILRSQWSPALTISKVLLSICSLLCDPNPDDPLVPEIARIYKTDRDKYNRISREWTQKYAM

Set 1 — method: RNA Bind-n-Seq; form: RNA; medium: in vitro; concentration: 15 pmol; notes: 4-mer, random 30-nt RNA, single round; together with: DMSO vehicle, 2 mM AMP-PNP; relative to: input library; reading: higher = stronger binding; endpoint: 4-mer enrichment
Target: Eukaryotic initiation factor 4A-I (EIF4A1, Homo sapiens, UniProt P60842, residues 1-406, full length assumed)
UniProt P60842, sequence (whole entry, looked up): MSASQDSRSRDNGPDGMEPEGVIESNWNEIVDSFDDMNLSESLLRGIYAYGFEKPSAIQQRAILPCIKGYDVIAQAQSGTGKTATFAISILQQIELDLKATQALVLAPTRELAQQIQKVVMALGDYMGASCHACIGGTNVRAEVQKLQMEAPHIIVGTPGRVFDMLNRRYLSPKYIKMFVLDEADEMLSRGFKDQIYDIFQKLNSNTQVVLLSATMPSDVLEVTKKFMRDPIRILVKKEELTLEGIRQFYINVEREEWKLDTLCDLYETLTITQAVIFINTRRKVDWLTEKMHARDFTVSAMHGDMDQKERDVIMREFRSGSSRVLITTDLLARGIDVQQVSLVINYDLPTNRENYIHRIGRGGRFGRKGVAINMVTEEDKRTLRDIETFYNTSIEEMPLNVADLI
Sequence = CUAG; result = 0.587 fold
Sequence = CUGA; result = 1.61 fold
Sequence = AUCU; result = 0.788 fold
Sequence = CUGC; result = 1.58 fold
Sequence = GCUA; result = 0.679 fold
Sequence = AAUA; result = 1.15 fold
Sequence = CAGA; result = 1.29 fold
Sequence = CUCA; result = 1.45 fold

Set 2 — method: yeast two-hybrid; form: peptide; medium: yeast; notes: mostly zero background; relative to: not given; reading: higher = stronger interaction; endpoint: lacZ reporter activity
Molecule: ANYISAHTKDCPKCNICIEKNGGCNHMQCSKCKHDFCWMCLGDWKTHGSE (ARIH2 RING domain (UniProt O95376))
target = UBE2W UBC core domain (UniProt Q96B02); result = 0
target = UBE2A UBC core domain (UniProt P49459); result = 0
target = UBE2D3 UBC core domain (UniProt P61077); result = 0

Set 3 — method: competition protein-binding microarray; form: double-stranded DNA, one strand shown; medium: in vitro; concentration: 2 µM; together with: Cbf1 competitor, 0.05 µM; reading: higher = stronger binding; endpoint: fluorescence intensity; shared flanks, not repeated: … GTCTTGATTCGCTTGACGCTGCTG
Target: Phosphate system positive regulatory protein PHO4, full length, GST-tagged (PHO4, Saccharomyces cerevisiae, UniProt P07270, residues 1-312)
Notes: whole 60-bp probe, lowest competitor level
Construct (chain): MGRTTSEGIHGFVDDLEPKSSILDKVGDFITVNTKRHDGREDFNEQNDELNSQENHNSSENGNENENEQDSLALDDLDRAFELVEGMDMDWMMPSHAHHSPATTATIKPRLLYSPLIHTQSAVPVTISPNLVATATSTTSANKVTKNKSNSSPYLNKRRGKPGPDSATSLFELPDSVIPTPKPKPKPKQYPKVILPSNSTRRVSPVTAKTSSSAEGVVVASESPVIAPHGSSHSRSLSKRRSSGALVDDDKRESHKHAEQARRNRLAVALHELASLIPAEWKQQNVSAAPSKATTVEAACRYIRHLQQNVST
Sequence = CTAACGAAGGTTTGGACCGTGGGTGACAAGCCAAGT; result = 7790 a.u.
Sequence = CATACCCAACCTTTTCACGTGTGCTAAGATATTTGT; result = 15600 a.u.
Sequence = ATTGTGGAATTGGCAGGCGTGACAAACAAATCCGAT; result = 6850 a.u.
Sequence = AACTACTGCCTTTATCATGTGACGGAACTACGCTTG; result = 6340 a.u.
Sequence = TAAAAGAGGTTCTCACTCGTGAATACACCATCAACT; result = 4120 a.u.
Sequence = CTAACGAAGGTTTGCACGGTGGGTGACAAGCCAAGT; result = 6710 a.u.
Sequence = GATTGGGAAATCTCTAATGTGACAGTCCATACTTGT; result = 3260 a.u.
Sequence = GCGTAAGTCGCTCCACACGTACATTGCTGTGGTGCA; result = 5770 a.u.

Set 4 — target: CCNE1, cyclin fold, Cln2 fusion (human); method: yeast growth competition, sequencing; medium: yeast; notes: strong parent motif; relative to: not given; reading: higher = stronger binding; endpoint: normalised enrichment score; starting sequence: viral docking peptide; KGVKRKLFAEDSS
Substitution = S12I; result = 7.57
Substitution = D11V; result = 6.93
Substitution = V3I; result = 4.51

A few entries again (set 1):
Sequence = CUGC; result = 1.58 fold
Sequence = GCUA; result = 0.679 fold
Sequence = AAUA; result = 1.15 fold
